Measurements pooled from the literature.
A part holds a random share of what one study measured.

Set 1
Target: Interferon regulatory factor 7, full length, phosphomimetic (IRF7, Homo sapiens, UniProt Q92985, residues 1-503, S101K/S471D/S472D/S475D/S476D/S477D/S483D/S484D/S487D)
Sequence of UniProt Q92985 (whole entry, unmodified, looked up): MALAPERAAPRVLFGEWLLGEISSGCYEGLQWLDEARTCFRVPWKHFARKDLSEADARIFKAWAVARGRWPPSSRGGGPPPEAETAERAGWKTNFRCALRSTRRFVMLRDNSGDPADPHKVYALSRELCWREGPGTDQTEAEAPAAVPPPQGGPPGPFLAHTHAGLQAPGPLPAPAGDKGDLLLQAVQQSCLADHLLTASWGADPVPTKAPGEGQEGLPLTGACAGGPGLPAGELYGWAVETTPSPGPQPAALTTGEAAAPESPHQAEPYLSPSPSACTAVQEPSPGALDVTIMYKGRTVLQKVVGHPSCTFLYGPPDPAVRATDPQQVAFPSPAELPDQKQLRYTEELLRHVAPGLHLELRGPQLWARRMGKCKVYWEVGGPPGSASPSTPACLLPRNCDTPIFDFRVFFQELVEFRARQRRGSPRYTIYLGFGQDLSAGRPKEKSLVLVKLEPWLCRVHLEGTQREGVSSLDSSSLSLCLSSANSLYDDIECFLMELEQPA
Technique: protein-binding microarray
Form: double-stranded DNA, one strand shown
Matrix: in vitro
Concentration: 250 nM
Notes: 60-bp whole probe
With: salmon DNA 0.4 mg/ml
Reference: random background probes
Direction: higher = stronger binding
Quantity: log fluorescence
Shared flanks, not repeated: GCCTAGCAC … GTCTTGATTCGCTTGACGCTGCTG
AACGATATCAGTATCGAGACGTGCTAG: 0.0821 z-score
TCAGGTTTACCAGATCATACTGTGCTA: -0.22 z-score
TTAGGTTTCGGACTGGATTAGTGCTAG: 3.85 z-score
AAACCATCCTGTATGGATGTGTGCTAG: -0.0913 z-score
GAAGATATCAGTTTCGAGACGTGCTAG: 4.62 z-score
GACGGTATCGGTATCGGCACGTGCTAG: 1.03 z-score
GACGGACTGGACTTTCGGGGCGTGCTA: -0.716 z-score
GACGATATTAGACTGGAGACGTGCTAG: -0.232 z-score
GAAAGGTACCATGGTGGCTCGTGCTAG: 0.187 z-score
TCATGTATATATGTGTAACTGTGCTAG: -0.0184 z-score
GACGGTTTCCATCTCCTGACGTGCTAG: 4.2 z-score
GACGGTTTCGACTTTCGGGCCGTGCTA: 10.3 z-score
TTAGGTATCGACTATGGGTTAGTGCTA: 0.0549 z-score
ATATATTTATGTATACACACGTGCTAG: 0.625 z-score
GACGGTATTCTTCTCCTGACGTGCTAG: -0.0551 z-score
TTAGGACTGGGGTATGGGTTAGTGCTA: -0.326 z-score
TCACTTTTATGCTCTTTCACTGTGCTA: 0.591 z-score
TCAGATATCAGTCTCGATTAGTGCTAG: 1.76 z-score
GACGGTTTCCTACTGCTGAAGTGCTAG: 1.76 z-score
TTAGATATCAGTATTGATTAGTGCTAG: 0.0214 z-score
TCAGAACTGGGGTATCGATTAGTGCTA: 0.148 z-score
TTAGGTATCGGGTTTAGGTTAGTGCTA: 1.7 z-score
TTACGACTGGACTATCGGTTAGTGCTA: -0.434 z-score

Set 2
Target: Histone acetyltransferase KAT6A, winged helix 2, GST fusion (KAT6A, Homo sapiens, UniProt Q92794, residues 85-181)
Technique: protein binding microarray
Form: double-stranded DNA, one strand shown
Matrix: in vitro
Concentration: not given
Notes: 8-mer, flanks averaged, mean of 2 arrays, mostly near background
Reference: not given
Direction: higher = stronger binding
Quantity: E-score
Construct (chain): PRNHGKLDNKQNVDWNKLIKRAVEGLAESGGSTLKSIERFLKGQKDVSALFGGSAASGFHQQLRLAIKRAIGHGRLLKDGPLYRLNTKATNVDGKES
ATTACTGC: 0.161
ACCCCACA: -0.0169
ATGCAATC: 0.0594
CAGGCGAA: 0.184
GAAGCTTC: -0.0509
TAAGCGGA: 0.113
CAAATCAG: 0.0248
GTCAGTAA: -0.0114
AAGTTTCA: 0.158
GCCGATTA: 0.136
CCGCGATA: 0.0991
CTCCGCCA: 0.126
GAAACTGA: -0.0242
CCCTGCCC: 0.0961
CACTTGCA: -0.0314
ACCAGGGA: -0.00553

Set 3
Target: Ras GTPase-activating protein-binding protein 1, RRM domain (G3BP1, Homo sapiens, UniProt Q13283)
Sequence of UniProt Q13283 (whole entry, looked up): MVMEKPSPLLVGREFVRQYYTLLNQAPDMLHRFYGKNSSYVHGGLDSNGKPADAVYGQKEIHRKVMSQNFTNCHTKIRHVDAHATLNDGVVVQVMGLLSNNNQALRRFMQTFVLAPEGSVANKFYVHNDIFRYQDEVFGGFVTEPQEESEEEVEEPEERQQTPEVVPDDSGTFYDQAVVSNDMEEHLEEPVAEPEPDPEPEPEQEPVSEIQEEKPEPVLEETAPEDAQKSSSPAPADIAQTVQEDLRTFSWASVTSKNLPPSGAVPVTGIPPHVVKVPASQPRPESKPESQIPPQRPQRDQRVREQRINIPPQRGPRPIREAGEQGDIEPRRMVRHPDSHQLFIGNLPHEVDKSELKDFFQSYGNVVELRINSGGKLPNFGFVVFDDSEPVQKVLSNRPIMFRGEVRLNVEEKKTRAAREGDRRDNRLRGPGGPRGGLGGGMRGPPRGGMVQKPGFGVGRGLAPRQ
Technique: RNA Bind-n-Seq
Form: RNA
Matrix: in vitro
Concentration: 1 µM
Notes: whole 134-nt RNA, ends assumed
With: 150 mM KCl
Reference: input library
Direction: higher = stronger binding
Quantity: log2 enrichment
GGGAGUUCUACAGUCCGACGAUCGCAGGAAGUAAAAACAAAUGGAAAUGCUUCGGAUAGUGGCAGAGGUGGGGGUUGCUAAGGAAAGGGUGGGAUGGGAGUGGGUAAAGAGUUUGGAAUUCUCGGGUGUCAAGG: 0.987
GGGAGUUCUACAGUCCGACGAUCUGGGAGGUGGAUUUUGUUUAUUUUUUUAGCUCAUUUCCAGGGGUGGGAAUUUUUUUUUAAUAUGUGUCAUGAAUAAAGAUGUUUUUGAAAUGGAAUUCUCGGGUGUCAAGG: 1.35
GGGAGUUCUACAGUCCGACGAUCGUCCUGUGCUACACAUCGUAUGUACCGAAUCGGGAAAAAAAGGGUUUGGGAAAAAGGGAAAGUAUUAUGUUACGCCGUUCGGAUCUGCACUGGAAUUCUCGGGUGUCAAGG: 0.115
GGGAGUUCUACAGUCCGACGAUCGUCCUGUGCUACACAUCGUAUGUACCGAAUCGGCCCCCGGGCCCCCGGGCCCCCGGGGAAAGUAUUAUGUUACGCCGUUCGGAUCUGCACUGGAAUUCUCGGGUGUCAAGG: -0.503
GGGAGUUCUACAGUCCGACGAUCUCCUGUGCUACACAUCGUAUGUACCGAAUCGGGGAAAGGGGAAAAAGGGGUUUUUGGGGAAAGUAUUAUGUUACGCCGUUCGGAUCUGCAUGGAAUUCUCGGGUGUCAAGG: 1.1
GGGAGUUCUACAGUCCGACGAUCCACAGACAACACGCACCCACACAGACACAGAGGGAACGGGUUGGGAUGGGGACAGGGUGCACAGCAGGGCGGGGUAGGACCCCAGCCCCUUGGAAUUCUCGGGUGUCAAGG: 0.197
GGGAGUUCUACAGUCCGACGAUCCACAGACAACACGGACCCACACAGACACAGAGGGAAGGGGUUGGGAUGGGGACAGGGUGCACAGCAGGGCGGGGUAGGACCCCAGCCCCUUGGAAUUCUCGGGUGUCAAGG: -0.0786
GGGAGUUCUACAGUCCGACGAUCUGGCCCUGGUGGCAUGCGGGGAGGAAGAGGUGGCCUCAUGGAUCGUGGUGGUCCCGGUGGAAUGUUCCGAGGUGGCCGUGGUGGAGACAGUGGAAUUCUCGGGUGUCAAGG: 2.39
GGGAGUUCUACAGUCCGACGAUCACCAUGAAGGUGGGCAUCUUUGGGAAGUGGGGCAAGGGGGGGAUAGGGAGGGGGGUAACACUUUGGGAACAGGUGGUCCCAGGUCGUUUCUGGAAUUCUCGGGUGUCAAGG: -0.533
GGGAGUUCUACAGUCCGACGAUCUGGCCCUGGUGGCAUGCGGGGAGGAAGAGGUGGCCUCAUGGAUCGUGGGGGUCCCGGUGGAAUGUUCAGAGGUGGCCGUGGUGGAGACAGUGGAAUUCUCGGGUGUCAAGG: 0.524
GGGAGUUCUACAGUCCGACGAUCCCUCAAGUCCUGUGCUACACAUCGUAUGUACCGAAUCGGGGUUGGUUGGUUGGAAAGUAUUAUGUUACGCCGUUCGGAUCUGCACUUCCAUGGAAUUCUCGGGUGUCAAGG: -0.239
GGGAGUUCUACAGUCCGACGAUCACCAUGCAGGUGGGCAUCUUUGGGAAGUGGGGCAAGGGGGGGAUAGGGAGGGGGGUAACACUUUGGCAACAGGUGGUCCCAGGUCGUUUCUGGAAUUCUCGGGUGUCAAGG: 0.933
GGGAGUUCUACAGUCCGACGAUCUCCUGUGCUACACAUCGUAUGUACCGAAUCGGGGUUUUUUUGGGGUUUUUGGGGAGGGGAAAGUAUUAUGUUACGCCGUUCGGAUCUGCAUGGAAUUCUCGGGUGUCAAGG: 0.438
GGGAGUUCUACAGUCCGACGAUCGCAGGAAGUAAAAACAAAUGGAAAUGCUUCGGAUAGUGGCAGGGGUGGGGGUUGCUAGGGAAAGGGUGGGAUGGGAGUGGGUAAAGAGUUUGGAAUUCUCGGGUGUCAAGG: 1.32

Set 4
Target: RNA binding protein fox-1 homolog 2, RRM domain, GST-SBP tag (RBFOX2, Homo sapiens, UniProt O43251-10, residues 100-194)
Technique: RNA Bind-n-Seq
Form: RNA
Matrix: in vitro
Concentration: 365 nM
Notes: natural RNA segment, single round, ends assumed
Reference: no-protein control
Direction: higher = stronger binding
Quantity: RBNS enrichment (R)
Residues (chain): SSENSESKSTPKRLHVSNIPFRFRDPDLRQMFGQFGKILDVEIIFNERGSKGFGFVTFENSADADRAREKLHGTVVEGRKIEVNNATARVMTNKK
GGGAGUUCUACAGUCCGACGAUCAGUGUCCUUCAGGAAUGAAAGGAGGGGCAAAGGAGUCACCAGAGGUCCUGCAUUUCCAUCAGGGUUUCCACAGUCAUCAGGGCUUCUCUCUUGAGUUGCUGAUAGGAGAUUGGAAUUCUCGGGUGCCAA: 4.95
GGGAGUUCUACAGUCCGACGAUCGGCUAGAGGAGUGGCAUCUGGAGCUCAGAAACGUGAGAGACUAUUUGUGUACAAAAGGCAGGAAAAAGUAUUUGAUACCACUGUACAUAAGAGUUUUCAGAGAUUUCAUAUGGAAUUCUCGGGUGCCAA: 0.799
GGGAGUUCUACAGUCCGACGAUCAUUUCCGGGGAACGCCGUGACUGUCGGGCAGCCUGGAGCUUCCUGCAGCCUCCUACGCAGGGUCCACGCCACGUGGCCUGGGCUGCCAUCCUGCCGUCCUCCCACUGGCAUGGAAUUCUCGGGUGCCAA: 0.312
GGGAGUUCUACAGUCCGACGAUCAUCUAGCAGGGUGCCGGGAGGAGCUGAGCCCCCGGAGGUGGGCUCCUGGUGACGGGUGUCCAAGAAGCGGUUUCCUUGGGAGCUUCUGCCUCCGUGGGCCUCUCAGCCCGUGGAAUUCUCGGGUGCCAA: 0.403
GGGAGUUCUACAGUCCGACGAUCUGGGAGGUGGUCUCUCAAGCUCUGGGUGCUUUUAGUACUUUUUUUUUUUUUUAACUGUAGGGAAGCAGCCCUGACCUUACCUCUCCACUCCUGUCCCGGGAGCUCUCAAUUGGAAUUCUCGGGUGCCAA: 0.41
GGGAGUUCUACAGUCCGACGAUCGCAACGACACCAACUGAUAAAAGCACAAGAGAAGUGGGGAACAUCUUGAGUCCUGUUGGACGUGAUAGUGUUUCUUGAUCUGUAUGCCACAGUGCCUUUAUGGCCAGUUUUGGAAUUCUCGGGUGCCAA: 0.837
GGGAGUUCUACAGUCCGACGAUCCAUAUGGGGAAUGUGUGUUUAUGUACCAGAUGGGGAGUGUUGAGGGGAUAUGGUGGCUCUGUGAUCUGUUUGUCCAUUUGUGUCCAGUGUUGACCUGCGUUACUGGAACUUGGAAUUCUCGGGUGCCAA: 34.6
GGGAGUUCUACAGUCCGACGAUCUUUCUCAGGUGUGAAUCAACUUCUUGGGCCUUGGCUCUGAGUUGGAAAAGGUUUUAGAAAAAGUGAAGAGCUGGAAUGUGGGGGAAAAUAAAAAGCUUUUUUGCCCAGUGUGGAAUUCUCGGGUGCCAA: 0.773
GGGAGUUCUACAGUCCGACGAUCCAGCUGCCCCGAUUGUGGCAAGACCUUCAACCGCUCCUCUACACUCAUUCAGCACCAGCGUUCCCACACAGGCGAGAGGCCGUACCGCUGCGCUGUGUGUGGCAAGGGCUUGGAAUUCUCGGGUGCCAA: 0.6
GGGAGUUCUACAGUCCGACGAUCAGAAUUCAAUAUCAGUUUAGUAGCAACAGUACAGUUGCCAUUUAAAUUGGUUUAGUUGCUGUAUAUCACCAUAGCCCCUGUUUACGUCAAACCUGUGUCUCGCUCUAUAUUGGAAUUCUCGGGUGCCAA: 0.242
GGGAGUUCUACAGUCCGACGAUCAGGGAAGAGAAGAGGGAGGGACUCACUCUUUAGAACCAGGAAGAUAAUUGACUUAGUGAAAGACAGCUUCCCCUCUGUUUAGGUUCUCAGAUAUGUCCAGAGCAAAUUAGUGGAAUUCUCGGGUGCCAA: 0.73
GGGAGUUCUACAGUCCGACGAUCAGUUUCAGUGACCCACGUCAGUUACACAUUAAAGCCAGACCCCAUGAUAAAAUUCCACAAAAUGGAAAUAAAACUCAAAUUUCUUUAGCAUUGUGUAAAUAAAUCUGAAUUGGAAUUCUCGGGUGCCAA: 0.404

Set 5
Target: Sal-like protein 4, full length isoform B (SALL4, Homo sapiens, UniProt Q9UJQ4-2, residues 1-616)
Technique: universal PBM
Form: double-stranded DNA, one strand shown
Matrix: in vitro
Concentration: not given
Notes: 8-mer, flanks averaged, mean of replicates
Direction: higher = stronger binding
Quantity: E-score
TCGCGCGA: -0.141
AGGATATG: 0.135
AGCATATA: 0.299
ATCTAACA: 0.134
CACAAATC: -0.0198
CAACACTG: 0.117
AGACTTGC: -0.0328
AATTATAG: 0.394
GAGAGTAC: -0.0759
AAAATCAA: 0.262
CGGGTTCC: -0.278
ACGAGTAG: 0.0168
CTCATGGA: -0.0464
GAGCCCGA: -0.213
ACAAGGGC: -0.218
ATGAGTTG: 0.0405
CATGACGA: -0.115
CTGCTCCC: -0.241
GCATTTAC: 0.169
CTTAGTGA: -0.111
CGTGGACA: -0.195
CGGCTTGC: -0.339
GCTGCCTA: -0.153
CACGCACA: 0.0708
AGGAATGC: -0.0925

A few entries again (set 2):
GTCAGTAA: -0.0114
AAGTTTCA: 0.158
GCCGATTA: 0.136
CCGCGATA: 0.0991
CTCCGCCA: 0.126
